Assay results gathered from unrelated publications.
Each numbered part is a random draw from the data of one study; scales do not carry over between parts.

Series 1 — technique: protein binding microarray; molecule type: double-stranded DNA, one strand shown; sample: in vitro; concentration: not given; baseline: not given; direction: higher = stronger binding
Target: Histone acetyltransferase KAT6A, winged helix 2, GST fusion (KAT6A, Homo sapiens, UniProt Q92794, residues 85-181)
Setting: 8-mer, flanks averaged, mean of 2 arrays, mostly near background
Target sequence (chain): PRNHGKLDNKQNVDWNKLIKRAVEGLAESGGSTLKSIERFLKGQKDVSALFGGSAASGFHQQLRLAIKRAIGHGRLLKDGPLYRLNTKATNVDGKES
Sequence | E-score
GCGCCCCC | 0.117
CAGATCTG | 0.11
AGGACATA | 0.0322
GCCGCTGA | 0.18
CTCGTGGC | 0.0829
CGAGTCGC | 0.0674
AAGCATAT | 0.0365
CCGGTAAA | -0.159
ACTCTAGC | -0.0686
CCCCCGGA | 0.0737
AGATGGTA | -0.124
AGACTTAG | -0.183
AGCTAGTA | 0.0736
ACCCGTGC | -0.0208
CCGAGGCG | 0.196
CAGATTCG | 0.0279
TAAAAGAA | 0.00266
GACAGTTA | -0.00115
ATATCCGG | 0.0805
ACTCTGTG | 0.12
CCAAGTAA | 0.0244
AATTCCGG | 0.114
TCGTCCCA | 0.0876

Series 2 — technique: protein-binding microarray; molecule type: double-stranded DNA, one strand shown; sample: in vitro; concentration: 2200 nM top; setting: 60-bp whole probe; added: salmon DNA 0.4 mg/ml; baseline: random background probes; direction: higher = stronger binding; all sequences stand within: GCCTAGCAC … GTCTTGATTCGCTTGACGCTGCTG
Target: Interferon regulatory factor 7, full length, phosphomimetic (IRF7, Homo sapiens, UniProt Q92985, residues 1-503, S471D/S472D/S475D/S476D/S477D/S483D/S484D/S487D)
Residues (chain): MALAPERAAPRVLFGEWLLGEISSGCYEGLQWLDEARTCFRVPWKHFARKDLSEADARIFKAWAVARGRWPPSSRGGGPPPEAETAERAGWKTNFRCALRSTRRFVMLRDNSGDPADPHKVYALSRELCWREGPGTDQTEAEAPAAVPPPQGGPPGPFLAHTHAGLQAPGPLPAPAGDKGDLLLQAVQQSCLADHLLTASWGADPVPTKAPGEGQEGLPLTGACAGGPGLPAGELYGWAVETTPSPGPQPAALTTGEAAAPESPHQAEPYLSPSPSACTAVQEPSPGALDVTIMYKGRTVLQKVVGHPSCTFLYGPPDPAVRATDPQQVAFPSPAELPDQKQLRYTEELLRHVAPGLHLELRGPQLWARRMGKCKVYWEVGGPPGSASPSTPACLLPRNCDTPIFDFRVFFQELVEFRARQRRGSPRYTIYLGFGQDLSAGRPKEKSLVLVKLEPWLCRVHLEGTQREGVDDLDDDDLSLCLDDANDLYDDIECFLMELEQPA
Sequence | fitted relative affinity [z-score]
TTGGGACTGGGGTTTCGGTTAGTGCTA | 2.25
GACGGTACCGACTTTCGGGACGTGCTA | 2.42
TGAGCACCCAGAGCCGCCTGGTGCTAG | -0.901
TTAGTTATCGGTATCGGTTAGTGCTAG | 1.66
GACGATTCCAGTCTCGAGACGTGCTAG | 0.814
TTAGGACTGCTTCTCTTTTAGTGCTAG | 0.5
TTAGATCTCAGTATCGACTAGTGCTAG | 0.0503
GACGGTATCGCGTTTCGGGACGTGCTA | 1.13
GACGATCTCAGTTTAGAGACGTGCTAG | 0.189
TGTTGGTAATTTTGCTATTTGTGCTAG | 1.1
TTAGAACTGGGGTTGCGATTAGTGCTA | 0.018
CCTCCCCTTGCTTTCCAATTGTGCTAG | 1.8
TTAGGTTTCCTCCTGCTTTAGTGCTAG | 1.94
TTAGGATTCCTACTGCTTTAGTGCTAG | 0.614
GACGAACTGGAGTATCGAGACGTGCTA | -0.455
CTCACCGCCAACCCAGTTCCGTGCTAG | 0.665
GACGGTCCCCTTCTCCTGACGTGCTAG | 0.493
ATAGAACTGGGGTATCGATTAGTGCTA | 0.131
TTAGGTTTCGGGTATAGGTTAGTGCTA | 4.3
TTAGATATCGGGCCTGGATTAGTGCTA | -0.4

Series 3 — technique: RNA Bind-n-Seq; molecule type: RNA; sample: in vitro; concentration: 100 nM; baseline: input RNA pool; direction: higher = stronger binding
Target: RING finger protein unkempt homolog, zinc fingers 1-6, SBP tag (UNK, Homo sapiens, UniProt Q9C0B0, residues 30-357)
Chain of UniProt Q9C0B0 (30-357, looked up): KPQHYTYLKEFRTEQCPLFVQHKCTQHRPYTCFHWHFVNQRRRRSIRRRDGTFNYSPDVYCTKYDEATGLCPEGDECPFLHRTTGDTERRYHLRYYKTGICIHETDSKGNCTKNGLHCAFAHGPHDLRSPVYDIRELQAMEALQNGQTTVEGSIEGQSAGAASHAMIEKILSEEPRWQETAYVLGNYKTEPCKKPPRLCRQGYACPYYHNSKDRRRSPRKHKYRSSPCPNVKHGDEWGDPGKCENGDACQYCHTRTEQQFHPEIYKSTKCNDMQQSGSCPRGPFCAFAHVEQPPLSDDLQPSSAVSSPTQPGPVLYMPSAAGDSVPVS
Setting: RNA with constant flanks, vertebrate orthologous sites, ends assumed
All sequences stand within: GGGAGUUCUACAGUCCGACGAUC … CAACAGAGGAUUGAGCAUCA
Sequence | bound/input enrichment [ratio]
CCGAAAGGCCAAAUUCCCUCCUCCCUUCUACUGCUUCUACCAACUGGAAGCACAGAAAACUAGAAUUUCAUUUAUUUUGUUUUUUAAAAAUAUACGUUGAUUUCUUGUAACAUUCAGUAG | 0.625
UUUUAUUGAUCAGGUCUGUAAAUGUGUACUAAAAAAAUCAGAGUUUAUUUAUGAAUUGAAUAGUUUAUUUAAAAAGAAGGUCUUUCCUUAUCCAUGUUGUGGUAUGCAUUAAUUCCAUUU | 0.632
GACCUCCUGAACUUCUAGCUUUCAAGCUGUGGCUGUUUUAGAUACUGGUUUUAUUUUCUUUACAAUUUUCCUGCCUUUCUUCCCAUGUUCCCAAGGUUUGACUCAUGGAUCUUAUUCUUC | 2.62
UACCUCCUGAACUUCUAGCUUUCAAGUUGUGGCUGUUUUUUGUUUUUGUUUUCUUUUCUUUAGAAUUUUUCCCUGUUUCCCACCUUCUCUUCCCCUGUUGCCAAGGUCUAACUCAUGGAU | 1.68
UGUGAGGGUGGGGGGUGGGGAAGGGAAGAUGUAUGGAUGUUAUUGGCAUUUUUAAGUGUUUAGAGUCUUUUUUUCCCCCCCUUUGUUCUGUUUUGCAUUUUCUCUUUAAUUGGAUGCACU | 1.2
GAGUGCUUAAGCCGCCAACAGUUAGAAGAUGCUAUUUAUUUGUGUCUGUAAGUUUGUACAUAGUAAUGCCAGCCUUGUUGCUGAAUUUUUUAUUUGUGGGGAGAUGAGUUUGAAUUUUGU | 2.03
GCACAUGCCACUAUCACCAAAAGCAAACUGCCACUUUUCAAAUUUCAUUCAGAGCUGUUUUAGUGUUUCCCAUUCCCUGCCUUUCCCACUACUUUCAAUGAUGAAAUAGCCUCAGUUGUC | 1.9
UUCAGUCCCCUGGGCCGGGACAGAUUUUUUUAACGUCUUGAAACUUAAACUCUGUGCUUGUAGGAGACUGUAACCUUUUUGUCUUUUUUUUUUUUAAACAAACAACCUCCAUCUCCAGUG | 0.811
AGAAAAUUUUAACCAAGAUUCUGAAGGUAGAAAUACAGGACCGUGGUUAUCUUCAUCACUUAGGAAUAGAUGCACACCUUUGUUUUCUAGAAGACGGCGAGAAGGAAGAGAUGAAUCUUC | 1.18
AAGGAGAAGAGCUCACAAACUCAAAGGAAAACUAGUAAAGCGUUUCUAAUAGUUAAAAGCUAGGAAAGAUUAGGACAAUUUUACAAAUGAGCAAUUAAAAAUAAAAGAAAAAGGAUAUGG | 0.856
CCAGUCUUCCACUUAGGGUCGGCCUCAAAUCUAUAGGAUUUAUGACAAAUGUAUUAGAUCUAGUUGAGUUUCAUAUUUUUUUAUUAGCCUGUAAAUAAAGAUGGCAUUACAUUAAAAUGG | 0.85

Series 4 — technique: RNA Bind-n-Seq; molecule type: RNA; sample: in vitro; concentration: 200 nM; setting: whole 134-nt RNA, ends assumed; added: 150 mM KCl; baseline: input library; direction: higher = stronger binding
Target: Ras GTPase-activating protein-binding protein 1, full length (G3BP1, Homo sapiens, UniProt Q13283)
Chain of UniProt Q13283 (whole entry, looked up): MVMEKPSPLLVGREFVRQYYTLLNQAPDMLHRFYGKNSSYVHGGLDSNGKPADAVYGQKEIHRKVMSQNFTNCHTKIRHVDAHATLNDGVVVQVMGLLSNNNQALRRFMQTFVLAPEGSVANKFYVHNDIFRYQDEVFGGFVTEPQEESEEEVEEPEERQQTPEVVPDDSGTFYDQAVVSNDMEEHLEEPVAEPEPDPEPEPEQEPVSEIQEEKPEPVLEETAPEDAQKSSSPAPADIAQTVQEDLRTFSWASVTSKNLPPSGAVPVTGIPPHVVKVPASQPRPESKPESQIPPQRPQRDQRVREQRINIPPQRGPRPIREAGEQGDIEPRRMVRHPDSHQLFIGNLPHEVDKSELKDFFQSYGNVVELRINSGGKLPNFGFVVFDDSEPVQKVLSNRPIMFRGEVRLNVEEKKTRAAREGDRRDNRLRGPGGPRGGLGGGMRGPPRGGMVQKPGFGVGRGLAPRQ
All sequences stand within: GGGAGUUCUACAGUCCGACGAUC … UGGAAUUCUCGGGUGUCAAGG
Sequence | log2 enrichment
UAACUUUAGAGGCGGAUCUGAUGGAUAUGGCAGUGGACGUGGAUUUGGGGAUGGCUAUAAUGGGUAUGGAGGAGGACCUGGAGGUGGCAA | 0.451
GCAGGAAGUAAAAACAAAUGGAAAUGCUUCGGAUAGUGGCAGGGGUGGGGGUUGCUAAGGAAAGGGUCGGAUGGGAGUGGGUAAAGAGUU | 1.12
UCCUGUGCUACACAUCGUAUGUACCGAAUCAAACCCCCCCAAACCCCCAAACCCCCAAAAAAGUAUUAUGUUACGCCGUUCGGAUCUGCA | 0.161
UGGGAGGUGGAUUUUGUUUAUUUUUUUAGCUCAUUUCCAGGGGUGGGAAUUUUUUUUUAAUAUGUGUCAUGAAUAAAGUUGUUUUCGAAA | 0.456
CACAGACAAAAAGCACCCACACAGACACAGAGGGAAGGGGUUGGGAUGGGGACAGGGUGCACAGCAGGGCGGGGUAGGACCCCAGCCCCU | 1.82
CCUGUGCUACACAUCGUAUGUACCGAAUCGGGAAAAAAAGGAAAAAAAGGGAAAAAAAGGAAAGUAUUAUGUUACGCCGUUCGGAUCUGC | -0.817
CAAGUCCUGUGCUACACAUCGUAUGUACCGAAUCGGGAAAAGGGAAAAGGAAAAGGAAAGUAUUAUGUUACGCCGUUCGGAUCUGCACUU | -0.909
CCUGUGCUACACAUCGUAUGUACCGAAUCGGGAAAAAGGGAAAAAAAGGGUUUUUUUGGGAAAGUAUUAUGUUACGCCGUUCGGAUCUGC | -0.867
GGACAAGAAUCCUUCAAGAAACAGGAAAAAACUCCUAAAACACCAAAAGGACCUAGUUCUGUAGAAGACAUUAAAGCAAAAAUGCAAGCA | 0.306
UCCUGUGCUACACAUCGUAUGUACCGAAUCGGGGAAAAAAAGGGGAGGGGAAAAAGGGGAAAGUAUUAUGUUACGCCGUUCGGAUCUGCA | 0.511
UGGCCCUGGUGGCAUGCGGGGAGGAAGAGGUGGCCUCAUGGAUCGUGGUGGUCCCGGUGGAAUGUUCAGAGGUGGCCGUGGUGGAGACAU | 0.133
UCAAGUCCUGUGCUACACAUCGUAUGUACCGAAUCGGCCGGGGCCGGGGCCGGGAAAGUAUUAUGUUACGCCGUUCGGAUCUGCACUUCC | -0.759
UGGCUUCGAAGUACAGUCUUUGCAGGAUGCAGGAAAUCAGCUUGGUAUGGAGGAUACAUCUCUGAGCUCUGGAAUGCUCACCCAGAACAC | -0.792
UGGGUGGUGGAUUUUGUUUAUUUUUUUAGCUCAUUUCCAGGGGUGGGAAUUUUUUUUUAAUAUGUGUCAUGAAUAAAGUUGUUUUUGAAA | 0.407

Excerpt of the above (series 1):
Sequence | E-score
CCGAGGCG | 0.196
TAAAAGAA | 0.00266
ACTCTGTG | 0.12
AAGCATAT | 0.0365
AGGACATA | 0.0322
CCGGTAAA | -0.159
ACCCGTGC | -0.0208
